Published values pooled from the literature.
Lines come from different studies, so protocols differ. ± marks the error that the study gave.
UniProt Q96PN8, sequence (whole entry, looked up): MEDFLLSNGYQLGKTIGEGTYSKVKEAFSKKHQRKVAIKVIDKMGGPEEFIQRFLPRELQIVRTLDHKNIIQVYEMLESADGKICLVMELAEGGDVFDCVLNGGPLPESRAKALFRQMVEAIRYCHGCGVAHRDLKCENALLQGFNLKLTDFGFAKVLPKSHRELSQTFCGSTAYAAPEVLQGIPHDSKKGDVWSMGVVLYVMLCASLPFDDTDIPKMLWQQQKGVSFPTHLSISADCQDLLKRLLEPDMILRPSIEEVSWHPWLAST
UniProt Q15370, sequence (whole entry, looked up): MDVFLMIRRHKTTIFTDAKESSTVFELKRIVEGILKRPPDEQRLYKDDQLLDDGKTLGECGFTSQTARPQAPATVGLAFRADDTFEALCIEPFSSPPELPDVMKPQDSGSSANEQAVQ

C[C@@H](NC(=O)N1C(=O)[C@H](Cc2ccnc(N)c2)[C@H]1C(=O)O)C1CCCCC1: “incidence of serious AEs” 0% (healthy adult Chinese volunteers; continuous intravenous infusion, 1.5 mg/kg/h, 5-day infusion, CTCAE 5.0 grading).
Under “dose fraction in skim milk”, Oc1c(Cl)cc2c(c1Cl)Oc1cc(Cl)c(Cl)cc1O2 is recorded as 43.7% (whole cow milk; 500 nM nominal).
For Clc1ccc(-c2ccccc2)cc1, the serum Phosphorous was 8 ± 0.5 mg/dL (rat Sprague-Dawley female, serum; inhalation, 35 µg/rat, 24 h).
Under “subjects with drug-related TEAE”, C[C@]1(CO)Cc2ncn(-c3ccc(C#N)c(Cl)c3)c2C(=O)O1 is recorded as 0% (measured: involuntary muscle contractions; human; 5 mg single dose).
With CCc1ccc(CC/C=C/c2ccc3c(c2)C(=O)CC3)cc1 the prothrombin time was 12.9 s (Sprague-Dawley rat, male, blood; oral, 120 mg/kg/day, 14 days).
COc1cccc(Oc2ccccc2NC(=O)CNC(=O)c2cccc3ccccc23)c1 gave a total bilirubin of 0.1 mg/dL (esterase-deficient SCID mice, male; oral, 100 mg/kg/day, 14 days, toxicity study).
For CC[C@H](C)[C@@H]1NC(=O)[C@@H]2CCCN2C(=O)[C@H](CC(C)C)NC(=O)[C@H](CC(C)C)NC(=O)CNC(=O)[C@@H](NC(=O)[C@@H](NC(=O)[C@H](CC(=O)O)NC(=O)CNC(=O)[C@@H](NC(=O)[C@H](C)NC(=O)CNC(=O)[C@H](CCCCN)NC(=O)[C@H](CC(C)C)NC(=O)[C@H](CC(C)C)NC(=O)[C@H](CCCCN)NC(=O)CNC(=O)[C@@H](NC(=O)[C@@H](N)CC(C)C)C(C)C)C(C)C)C(C)C)CSSC[C@@H](C(=O)O)NC1=O, “log2 fold change” read -3.08 (RNA-seq, measured: Cyp4f18 mRNA; mouse traumatic brain injury, frontal cortex and hippocampus; dose not given; relative to: TBI plus compound vs TBI).
N[C@@H]1c2ccccc2OC12CCN(c1cnc3c(N4CCCc5ncccc54)n[nH]c3n1)CC2: “TEAE leading to withdrawal” 0% (advanced metastatic solid tumour patients; oral, 60 mg once daily).
For COc1cc2c(Oc3ccc4[nH]c(C)cc4c3F)ccnc2cc1OCC1(N)CC1, “patients with grade 3 TBIL elevation” read 0% (paediatric refractory sarcoma patients; 8 mg/kg).
CO[C@H]1C[C@@H]2CC[C@@H](C)[C@@](O)(O2)C(=O)C(=O)N2CCCC[C@H]2C(=O)O[C@H]([C@H](C)C[C@@H]2CC[C@@H](OC(=O)NCCOCCOCCOCCOCCOCCOCCOCCOCCC(=O)N3CCc4cc(Cn5nc(-c6ccc7oc(N)nc7c6)c6c(N)ncnc65)ccc4C3)[C@H](OC)C2)C[C@@H](O)[C@H](C)/C=C(\C)[C@@H](O)[C@@H](OC)C(=O)[C@H](C)C[C@H](C)/C=C/C=C/C=C/1C gave a dysgeusia incidence of 0% (patients with advanced solid tumours; intravenous, 10 mg weekly, grade 3 or higher).
With O=C(O)CCCOc1ccc(F)cc1-c1cc(-c2ccccc2C(F)(F)F)n(-c2ccccc2)n1 the haemoglobin was 14.9 g/dL (Crl:CD(SD) rats, female, blood; iv, 25 µg/kg, 14 days).
For CC[C@H](C)[C@H](NC(=O)[C@H](Cc1ccccc1)NC(=O)[C@H](CCC(=O)O)NC(=O)[C@H](CCCNC(=N)N)NC(=O)[C@H](C)NC(=O)[C@H](C)NC(=O)[C@H](CCC(N)=O)NC(=O)[C@H](CCC(=O)O)NC(=O)[C@H](CCC(=O)O)NC(=O)[C@H](CC(C)C)NC(=O)[C@H](Cc1ccc(O)cc1)NC(=O)[C@H](CO)NC(=O)[C@H](CO)NC(=O)[C@@H](NC(=O)[C@H](CC(=O)O)NC(=O)[C@H](CO)NC(=O)[C@@H](NC(=O)[C@H](Cc1ccccc1)NC(=O)[C@@H](NC(=O)CNC(=O)[C@H](CCC(=O)O)NC(=O)[C@H](C)NC(=O)CCc1c[nH]cn1)[C@@H](C)O)[C@@H](C)O)C(C)C)C(=O)N[C@@H](C)C(=O)N[C@@H](Cc1c[nH]c2ccccc12)C(=O)N[C@@H](CC(C)C)C(=O)N[C@H](C(=O)N[C@@H](CCCNC(=N)N)C(=O)NCC(=O)N[C@@H](CCCNC(=N)N)C(=O)N[C@@H](CCCCNC(=O)COCCOCCNC(=O)COCCOCCNC(=O)CC[C@H](NC(=O)CCCCCCCCCCCCCCCCC(=O)O)C(=O)O)C(=O)NCC(=O)NCC(=O)N[C@@H](CO)C(=O)N[C@@H](CCCCNc1c(NCCCCCN(O)C(=O)CCC(=O)NCCCCCN(O)C(=O)CCC(=O)NCCCCCN(O)C(C)=O)c(=O)c1=O)C(=O)O)C(C)C [zirconium-89 labelled], the tissue uptake was 0.02 %ID/g (ex vivo gamma counting; rat, duodenum content; subcutaneous, 3 nmol/kg, 168 h, together with: [89Zr]-labelled peptide).
Cn1ncc(-c2nc(N[C@H]3CC[C@H](N)CC3)ncc2Cl)c1CC1CC1 gave an AUC of 43 ng·h/mL (HPLC-MS/MS; human patients; oral, 1 mg, day 5).
With COc1cc(CCC[P+](c2ccccc2)(c2ccccc2)c2ccccc2)c(OC)c2c1OCO2.[I-] the TGI was -4.86 log M (M14; SRB).
The inhibition of COc1ccc(N2C(=O)N(c3c(C)cccc3Cl)Cc3cnc(Nc4ccc(C5CCN(C)CC5)cc4OC)nc32)nc1 is reported as 7% (TSSK3 (Homo sapiens, UniProt Q96PN8); kinase activity; 0.5 µM).
O=C(O)CCC(CP(=O)(O)O)C(=O)O (stereo not shown) gave a measured concentration of 7.89 ± 0.17 µg/mL (rat plasma; 8 µg/mL, 4 h, room temperature, bench-top stability, diluted 1:10).
For O=C(Nc1ccccc1)C1CCN(C(=O)Oc2cccnc2)CC1, “Gastrointestinal disorders adverse events” read 30.8% (healthy women; oral, 100 mg, 9 days).
For C[C@H]1CN(c2n[nH]c3nc(N[C@H]4CC[C@H](NS(=O)(=O)CCC(F)(F)F)CC4)ncc23)CCO1, the remaining binding was 1.12 (Elongin-B (Homo sapiens, UniProt Q15370); Kinobeads competition, measured: TCEB2; 0.16 µM, unit not given; relative to: vehicle).
COc1cc(Nc2ncc(F)c(Nc3ccc4c(n3)NC(=O)C(C)(C)O4)n2)cc(OC)c1OC gave an IC50 of greater than 10 µM (neutral sphingomyelinase; enzyme activity, inhibitor).

Some of these lines once more:
With COc1cc(CCC[P+](c2ccccc2)(c2ccccc2)c2ccccc2)c(OC)c2c1OCO2.[I-] the TGI was -4.86 log M (M14; SRB).
